# Results gathered from unrelated publications.
# Every numbered part comes from another study and shows a few of its results, in no order. Substitutions count along the parent as printed.

# Study 1
# Target: RNA binding protein fox-1 homolog 2, RRM domain, GST-SBP tag (RBFOX2, Homo sapiens, UniProt O43251-10, residues 100-194)
# Technique: RNA Bind-n-Seq
# Form: RNA
# Medium: in vitro
# Tested at: 365 nM
# Setting: natural RNA segment, single round, ends assumed
# Baseline: no-protein control
# Direction: higher = stronger binding
# Shared flanks, not repeated: GGGAGUUCUACAGUCCGACGAUC … UGGAAUUCUCGGGUGCCAA
# Residues (chain): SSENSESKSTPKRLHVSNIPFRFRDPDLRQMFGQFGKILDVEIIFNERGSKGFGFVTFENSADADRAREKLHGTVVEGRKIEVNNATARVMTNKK
Sequence,RBNS enrichment (R)
AACCAGUGUGGUUGCCAGAGUGGUCAGGCUGCUCUGAGACAGGGAAGUCUGAUCUCCGCAGGAAACUCUUGUGAAGUAACUGGUGCCUGAGGUGCACUCAAGUGUGGGAC,0.276
UAGGAAGAUUUGGGCAUAUAUGCUCUCUAUUGGUUCCUUCCAUAUUAAACAUACCUGUGUUUUGAGAAGUGUCCUUCCCACUUUGGGCUUUCAGAAGGAAUACUUGGUUC,0.243
GGAUAGGCUUUUGCAAAUAUAUCAGAUAAAUUUUUUGUUUCUUGUUUAUUUUUAGGUUAUUUUCUUGGAAGGUUGGGAAAAGAUGUUUGUUUUAACAGGUCAUGUACUAC,0.9
CAGUAGCAAAAUUAAUUGUGAAGUAGCAAUGAAAAUAACCUUCUGGUUGGGGGCCACCAUGAGGAACUGUACUAAAGGGUGGCAGCAUGAGGAAGGUUGGGUACCGCUGG,1.44
ACGGGAAAAUUUUUGCUUGCUUGUGAAGCACCUGUCAGAGGACCCGCCUUCGAGCCUGCAGGAACUAGAACAAGACUAUGGGGAAUCCUUUCUAGUUGCCAUGGAAAAGC,10.1
AGGCUGCUGCCUUCCCAGAGCCUGGAGGCAGCUCUGCUGUUCAGCCCCAAACUUUGUUUACACUGCUAGGGAAGGAGGAGCUCCGGCAAGGGAAUAACUAGGCUGGUUAA,0.394
AAGCGUGGGCGAGCAUUCUCCUCGGCAGCUCUGGGGGGGACAGAGCUAAGAGCACACAGAAUGGAUCUGACUGAGGGAGGAGACCACGGGAAAGCAAGGUUGCCUGGUAG,1.17
UGUGUAUGAGAUCCUAUAUACCAGCAUGUACCAAGAAUGUGUGUGUAGUUUUAAUUAUGCUGCAAUGUAUAAUCUGGUGUGUUAUUUAAACAGCACUAGUACUGUACACU,6.94

# Study 2
# Target: CCNA2, cyclin fold, Cln2 fusion (human)
# Technique: yeast growth competition, sequencing
# Medium: yeast
# Setting: strong parent motif
# Baseline: not given
# Direction: higher = stronger binding
# Parent: E2F1 docking peptide (human); PPVKRRLDFETDH; partner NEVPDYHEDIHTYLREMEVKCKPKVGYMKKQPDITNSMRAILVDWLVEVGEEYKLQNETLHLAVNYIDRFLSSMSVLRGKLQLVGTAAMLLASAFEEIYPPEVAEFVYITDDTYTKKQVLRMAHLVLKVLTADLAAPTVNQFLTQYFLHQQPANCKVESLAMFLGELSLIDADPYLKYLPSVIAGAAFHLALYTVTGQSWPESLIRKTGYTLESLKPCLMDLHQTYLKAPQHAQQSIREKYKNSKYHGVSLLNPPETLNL
Variant,normalised enrichment score
T11L,5.73
K4W,5.66
K4F,5.04
L7F,0.58
E10K,6.02
R5L,2.42
T11M,5.85
D8E,5.71
D12G,6.4
F9H,0.242
L7C,1.2
K4R,5.99
D12Q,6.08
P2N,6.28
P2Q,6.08
T11G,5.98
R5D,0.0527
F9S,0.376
E10H,6.62
V3P,6.15
L7W,0.0714
R6D,0.32
D8F,6.52

# Study 3
# Target: Interferon regulatory factor 5, full length, phosphomimetic (IRF5, Homo sapiens, UniProt Q13568-2, residues 1-514, S451D/S453D/S456D/S462D)
# Technique: protein-binding microarray
# Form: double-stranded DNA, one strand shown
# Medium: in vitro
# Tested at: 940 nM top
# Setting: 60-bp whole probe
# With: salmon DNA 0.4 mg/ml
# Baseline: random background probes
# Direction: higher = stronger binding
# Shared flanks, not repeated: GCCTAGCAC … GTCTTGATTCGCTTGACGCTGCTG
Sequence,fitted relative affinity [z-score]
GTCGGTATCGACTATCGGGACGTGCTA,5.95
TCACGTCTGATTTTGCTACTGTGCTAG,0.389
GACGGACTGCTTTTCCTGAAGTGCTAG,-0.421
TGGTTTTCCTTATTGCTTCCTGTGCTA,2.17
TCAATCTTAGATATTAAACTGTGCTAG,0.0867
GACGGTCTCGGTATCGGGCCGTGCTAG,4.45
GAAGGTCTCCTTTTCCTGACGTGCTAG,0.273
GACGGTATCGGGTATCGGGAAGTGCTA,5.23
CACTTTCTTTACTTCACTCTGTGCTAG,2.82
TCAGGTCTCCCTTGAGGACTGTGCTAG,-0.0748
GACGGTCTCGTACTGCTGACGTGCTAG,0.571
TCAATTCTCACTGCAGCACTGTGCTAG,1.62
TCAAGTTTTCTTTTCCAACTGTGCTAG,1.05
TCACCTCTCACCTCGGCACTGTGCTAG,1.03
TTAGAACTGAGACTGGATTGGTGCTAG,0.0214
ACATCCAAATCCACCATTCAGTGCTAG,1.41
GACGGTTTCCTTTTCCAGACGTGCTAG,2.37

# Study 4
# Target: Ras GTPase-activating protein-binding protein 1, full length (G3BP1, Homo sapiens, UniProt Q13283)
# UniProt Q13283, sequence (whole entry, looked up): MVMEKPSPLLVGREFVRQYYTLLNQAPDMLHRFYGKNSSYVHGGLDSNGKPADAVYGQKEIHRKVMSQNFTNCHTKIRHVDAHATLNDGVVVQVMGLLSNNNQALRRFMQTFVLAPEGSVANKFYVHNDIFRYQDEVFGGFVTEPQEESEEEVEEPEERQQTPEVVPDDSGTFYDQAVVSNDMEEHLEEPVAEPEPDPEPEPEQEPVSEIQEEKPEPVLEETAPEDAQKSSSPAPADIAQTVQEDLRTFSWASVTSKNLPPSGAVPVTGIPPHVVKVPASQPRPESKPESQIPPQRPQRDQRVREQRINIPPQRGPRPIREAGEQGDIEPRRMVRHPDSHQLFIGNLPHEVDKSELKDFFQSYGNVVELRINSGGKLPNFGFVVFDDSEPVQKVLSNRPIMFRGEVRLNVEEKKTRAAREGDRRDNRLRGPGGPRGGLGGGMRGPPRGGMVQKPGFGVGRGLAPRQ
# Technique: RNA Bind-n-Seq
# Form: RNA
# Medium: in vitro
# Tested at: 200 nM
# Setting: whole 134-nt RNA, ends assumed
# With: 150 mM LiCl
# Baseline: input library
# Direction: higher = stronger binding
# Library: 7-deaza-guanosine replaces G
# Shared flanks, not repeated: GGGAGUUCUACAGUCCGACGAUC … UGGAAUUCUCGGGUGUCAAGG
Sequence,log2 enrichment
ACCAUGCAGGUGGGCAUCUUUGGGAAGUGGGGCAAGGGGGGGAUAGGGAAAGGGGUAACACUUUGGGAACAGGUGGUCCCAGGUCGUUUC,0.393
CCUCAAGUCCUGUGCUACACAUCGUAUGUACCGAAUCGGGGUGGGGUGGGUGGAAAGUAUUAUGUUACGCCGUUCGGAUCUGCACUUCCA,-0.269
CCUGUGCUACACAUCGUAUGUACCGAAUCAAACCCCCAAAUUUUUUUAAACCCCCCCAAAAAAGUAUUAUGUUACGCCGUUCGGAUCUGC,1.25
UGGGCUGGAUGGCUCAGUUCCCCCAGACCUGGACUGGAAGGGCCAGCCACCUGCACCUCCUAAAAAGGGACUGCUGCAGAGACUCUUCAG,-0.76
UGGGAGGUGGAUUUUGUUUAUUUUUUUAGCUCAUUUCCAGGGGUGGGAAUUUUUUUUUAAUAUGUGUCAUGAAUCAAGUUGUUUUUGAAA,0.0556
CCCGAGCCGGAGAGGGAGCGCGAGCCGCGCCGGCCCCGGUCGGGCCUCCGAAACCAUGAACUUUCUGCUGUCUUGGGUGCAUUGGAGCCU,0.643
UCCUGUGCUACACAUCGUAUGUACCGAAUCGGGGUUUUUUGGGGUUUUUUGGUUUUUUGGAAAGUAUUAUGUUACGCCGUUCGGAUCUGC,0.703
UCCUCAAGUCCUGUGCUACACAUCGUAUGUACCGAAUCGGGGAGGAGGAGGGAAAGUAUUAUGUUACGCCGUUCGGAUCUGCACUUCCAG,0.39

# Some of these lines once more (study 2):
Variant,normalised enrichment score
K4F,5.04
E10K,6.02
V3P,6.15
T11L,5.73
T11G,5.98
D12G,6.4
L7F,0.58
R6D,0.32
